Measured values of several laboratories.
Numbered parts are unrelated; each lists some results of a single study. Substitutions count along the parent as printed.

Series 1
Target: RNA binding protein fox-1 homolog 2, RRM domain, GST-SBP tag (RBFOX2, Homo sapiens, UniProt O43251-10, residues 100-194)
Method: RNA Bind-n-Seq
Molecule type: RNA
Matrix: in vitro
Tested at: 365 nM
Setting: natural RNA segment, single round, ends assumed
Reference: no-protein control
Reading: higher = stronger binding
Endpoint: RBNS enrichment (R)
Construct (chain): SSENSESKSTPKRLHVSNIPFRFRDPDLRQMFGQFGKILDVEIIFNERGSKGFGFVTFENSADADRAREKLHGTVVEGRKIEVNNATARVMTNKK
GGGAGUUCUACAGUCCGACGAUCUUAACUUUUAAUUUUUUAUAUUUAAAUGUAGACUUUUGACACUUUUAAAAAACAAAAAAUGACAAGAGAGAUGAAAACGUUUGAUUAUUUUCUCAGUGUAUUUUUGUAAAUGGAAUUCUCGGGUGCCAA: 1.28
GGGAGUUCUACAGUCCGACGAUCUAAGUAUGAAUCUGCUAUGAUAAAAGAAAUUCUCACUUCUCAAAUAGUCUUCUUGUAAGGAGCAUUGGGCUGUCAUCUUUGAGCUGCUUAUCAAAAUACAGAUCAUUAUUUGGAAUUCUCGGGUGCCAA: 0.494
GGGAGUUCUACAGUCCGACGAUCUUUUCAGUCUCAAACUUUCUGCAUACUUUGCCUCCUUUAAAAGUUACAAAUAUUACAAAGUAAAAUCUAGCGUCAUAUCCAAUUCUUCCAAAUGACCUCUAUCAGCUGUUUGGAAUUCUCGGGUGCCAA: 0.878
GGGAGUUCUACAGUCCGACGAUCGGGCUCUGUCUCUGCCUUGACCUCCUGGGUCAAGUCCCUGACCUCAGGAUACCUGCUGUCCACCCAACAGACUGCAAACAUCAACUGUGUUUGGUGCUGACACUCUGAACUGGAAUUCUCGGGUGCCAA: 0.259
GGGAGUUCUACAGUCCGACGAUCUUGUGAAAUAGCUUCUGUUGGAAACCUUUUGAGGGGAAUAAGGAAUGGUCAUCUAAAAUGAGAGAUUCUGGAUUUUAAUGCAGUUCAAAGUUGAGCUGUAUUUUUGUUGUUGGAAUUCUCGGGUGCCAA: 0.63
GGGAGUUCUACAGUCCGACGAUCGACAAAAGAAAGAGACAGACAGACAGACAGACAGAACAGGAAUUACAGUUGGCUUAGCAGGGAGGAUCUGUAGAGCUCUCGAUGAUCCUUCCUCCAUGUGUGUCCUGUGAUGGAAUUCUCGGGUGCCAA: 0.56
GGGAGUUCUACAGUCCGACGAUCUACUGAAGGAUUGUAGCAUUAAAGCAGAAUCCAAAUCAAAGUAAUUGUAUUUUUAAAAUACAGGAGGGCGGGCGCUAACCAGAUCUUGACUGAUAUGGAAACGUACUUUUUGGAAUUCUCGGGUGCCAA: 0.289
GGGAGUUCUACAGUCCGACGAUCCACCCACGGGUGGUCCAGGUCACGACUCUGCACGCCCUUAGGCCAGGUCAGCUGCGAGGGUCACAGAGCGUUCCGGGGGCCAAGGCGCCGGGCCCCGGGGCCAUGCUCUUUGGAAUUCUCGGGUGCCAA: 0.298
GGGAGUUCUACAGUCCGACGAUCUGAAUUCGGGCAAUGUGAAUUGAUUAAUUAGAAAAGGGUCAAAAGAAAUACAAUGGAUGUGGAAACUAAUUCUAAAAAAUAGCCCUAUUAAUAGGGCAGAGACUCUGGUCUGGAAUUCUCGGGUGCCAA: 0.522
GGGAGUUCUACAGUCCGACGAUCGGGUCCAGCUUGCGGGGGACCCUCCCCAGCCCAUUCCUGCUGUCAAACAAACAAAACCUUGCAAAGCCUGGGUUCUGCUGGCUGUUUUUCUCCCUACAUCGCGUUCCUCAUGGAAUUCUCGGGUGCCAA: 1.03
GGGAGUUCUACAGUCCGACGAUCCUUCUUCCCCAAUAUGCCUGCGCCAUCUUCACAUUCUGAAGUUGAAACCCAUGAUCACCCCUUUGAGGUAGAUUGACCGGCUUUAGACGCCCACCCCCCACCCACCGCAAUGGAAUUCUCGGGUGCCAA: 0.544
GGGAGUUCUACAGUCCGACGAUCAUAUCUGAUCCAAAUAUUAAAUAUCUGAUUUUAUAAAACAGUUUAAAUUGUCUUUUUAAAUUGCUAACAAGCAUCAGUUAUAUUUGAGCUUCAUUUUUCUUUUAUCCUGUUGGAAUUCUCGGGUGCCAA: 0.441

Series 2
Target: Sal-like protein 4, full length isoform B (SALL4, Homo sapiens, UniProt Q9UJQ4-2, residues 1-616)
Method: universal PBM
Molecule type: double-stranded DNA, one strand shown
Matrix: in vitro
Tested at: not given
Setting: 8-mer, flanks averaged, mean of replicates
Reading: higher = stronger binding
Endpoint: E-score
GCAAGCGA: -0.0884
GCTTACAA: 0.223
AAGAGGTA: 0.009
AGTCCCCG: -0.106
CTTTACAA: 0.0999
ATTCTCTC: -0.0603
AGCAGACT: 0.005
ACGCTCTA: -0.159
CCGGGAAC: -0.265
ACCTTGGA: -0.137
AGCTCTGG: -0.128
CAGTAAGA: 0.0574
AAAGTGAT: 0.21
GACCCGAA: -0.25
CAAAACTG: 0.122
GTCACGTA: 0.0938
CGACCATC: -0.208
CCCAGTAG: -0.0587
AACGCTCC: -0.0701
CCGCGGTC: -0.427
ATTATTCC: 0.19
CTCCGCAA: -0.15
GCACTGCC: -0.0974
GGTACTAA: -0.0321
CAGTCAAC: -0.181

Series 3
Target: ABI1, truncated, D143A, DHFR fusion (Arabidopsis thaliana)
Method: DHFR PCA, deep sequencing
Matrix: yeast
Setting: methotrexate growth selection, single substitutions
Added: (+)-ABA 0.11 µM
Reference: wild-type fitted maximum
Reading: higher = stronger binding
Endpoint: relative binding score
Starting sequence: PYL1, truncated, DHFR fusion (Arabidopsis thaliana); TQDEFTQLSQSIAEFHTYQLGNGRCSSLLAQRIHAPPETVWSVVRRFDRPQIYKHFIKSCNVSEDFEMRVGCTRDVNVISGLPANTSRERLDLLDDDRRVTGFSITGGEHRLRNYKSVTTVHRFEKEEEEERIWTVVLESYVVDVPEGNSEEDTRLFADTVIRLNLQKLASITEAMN; partner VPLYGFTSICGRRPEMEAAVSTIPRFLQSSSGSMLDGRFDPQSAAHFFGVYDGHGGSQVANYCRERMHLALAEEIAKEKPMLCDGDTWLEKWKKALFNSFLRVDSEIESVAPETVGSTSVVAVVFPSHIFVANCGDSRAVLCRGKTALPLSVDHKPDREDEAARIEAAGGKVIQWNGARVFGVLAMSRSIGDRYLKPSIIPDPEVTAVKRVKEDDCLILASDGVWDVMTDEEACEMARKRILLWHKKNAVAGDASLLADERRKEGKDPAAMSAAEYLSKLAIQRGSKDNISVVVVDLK
D144T: 9.6%
V43L: 17.5%
G102Y: -8.79%
G23A: 3.7%
G81C: 21.8%
P83F: 8.73%
W134D: 14.8%
E38R: 0.613%
H34Y: 30.2%
V40G: 2.71%
I79K: 2.86%
S11I: 28.2%
Q2T: 40%
G102N: -3.06%
N114K: 4.24%
I162L: 9.36%
F5H: 6.36%
E151W: 4.14%
S63Y: -2.14%

Series 4
Target: TEF, bZIP domain (human)
Method: DHFR protein complementation
Matrix: yeast
Setting: single substitutions, most at no-binding floor
Reference: wild-type JUN-FOS pair
Reading: higher = stronger binding
Endpoint: binding fitness
Starting sequence: JUN, bZIP domain (human); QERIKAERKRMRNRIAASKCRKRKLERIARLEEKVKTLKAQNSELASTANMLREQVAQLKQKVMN; partner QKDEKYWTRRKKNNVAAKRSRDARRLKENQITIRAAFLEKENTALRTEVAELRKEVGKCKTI
A29C: -1.53 natural log
V56E: -1.53 natural log
A40F: -1.16 natural log
E44Q: -1.31 natural log
E54N: -1.49 natural log
S43F: -1.55 natural log
R53N: -1.51 natural log
V56L: -1.43 natural log
S47T: -1.48 natural log
S47P: -1.48 natural log
T37K: -1.46 natural log
L45H: -1.51 natural log
V35E: -1.55 natural log
T37P: -1.52 natural log
S47Q: -1.55 natural log
S43A: -1.36 natural log

Series 5
Target: CCNA1, cyclin fold, Cln2 fusion (human)
Method: yeast growth competition, sequencing
Matrix: yeast
Setting: strong parent motif
Reference: not given
Reading: higher = stronger binding
Endpoint: normalised enrichment score
Starting sequence: RBL2 docking peptide (human); STTRRRLFVENDS; partner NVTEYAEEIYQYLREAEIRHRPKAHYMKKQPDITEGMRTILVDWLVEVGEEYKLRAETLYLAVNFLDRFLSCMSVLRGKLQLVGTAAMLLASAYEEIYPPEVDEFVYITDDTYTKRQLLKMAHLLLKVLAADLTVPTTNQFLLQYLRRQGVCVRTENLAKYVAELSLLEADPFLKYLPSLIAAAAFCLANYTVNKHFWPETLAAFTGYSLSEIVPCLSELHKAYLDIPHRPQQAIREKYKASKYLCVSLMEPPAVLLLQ
STTRRRLFVENGS [D12G]: 0.808
STTRRRGFVENDS [L7G]: -0.332
SATRRRLFVENDS [T2A]: 0.438
STTRRRLFVENDR [S13R]: 0.694
STTRRGLFVENDS [R6G]: 0.413
STTRRRLTVENDS [F8T]: 0.43
STTRRRLFVENDG [S13G]: 0.64
STTRRRLDVENDS [F8D]: 0.298
STTRRRLFVKNDS [E10K]: 0.209
STTRRRLFVENKS [D12K]: 0.77
YTTRRRLFVENDS [S1Y]: 0.669
STERRRLFVENDS [T3E]: 0.0396
STTRRRYFVENDS [L7Y]: 0.24
STTRRRLFVEKDS [N11K]: 0.66
STTRRRAFVENDS [L7A]: 0.773
STTRARLFVENDS [R5A]: 0.0287
STTRRRLFPENDS [V9P]: 0.528
STTRKRLLVENDS [R5K F8L]: -0.158
STTLRRLFVENDS [R4L]: 0.334
STTRRRLFFENDS [V9F]: 0.538
STHRRRLFVENDS [T3H]: 0.234
STTRRRLFDENDS [V9D]: 0.465
STTRRDLFVENDS [R6D]: 0.369
STTRRCLFVENDS [R6C]: 0.726

Series 6
Target: Centromere-binding protein 1, full length, His-tagged (CBF1, Saccharomyces cerevisiae, UniProt P17106, residues 1-351)
Chain of UniProt P17106 (whole entry, looked up): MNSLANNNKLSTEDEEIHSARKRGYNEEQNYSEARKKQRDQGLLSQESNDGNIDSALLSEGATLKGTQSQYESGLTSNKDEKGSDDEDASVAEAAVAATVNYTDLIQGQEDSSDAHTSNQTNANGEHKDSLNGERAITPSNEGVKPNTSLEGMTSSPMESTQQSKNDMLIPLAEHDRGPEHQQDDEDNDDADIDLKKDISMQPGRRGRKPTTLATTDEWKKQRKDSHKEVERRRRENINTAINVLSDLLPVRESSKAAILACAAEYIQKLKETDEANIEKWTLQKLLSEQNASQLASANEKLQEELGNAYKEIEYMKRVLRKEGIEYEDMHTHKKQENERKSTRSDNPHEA
Method: competition protein-binding microarray
Molecule type: double-stranded DNA, one strand shown
Matrix: in vitro
Tested at: 2 µM
Setting: whole 60-bp probe, lowest competitor level
Added: Pho4 competitor, 0.05 µM
Reading: higher = stronger binding
Endpoint: fluorescence intensity
AAAGCGGTAATTTGGTAGGTGGGTGCAGATATCTATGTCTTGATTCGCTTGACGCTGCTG: 80.8 a.u.
AAATTACTAAGTTGTGATGTGGGTGACGCCGTATGAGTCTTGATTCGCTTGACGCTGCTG: 73.5 a.u.
CTAACGAAGGTTTTTCACGTGTTGTACAAGCCAAGTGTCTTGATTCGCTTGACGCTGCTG: 1080 a.u.
AACAATGGTCATAAACATGTGGTGAGCAATGTTTCAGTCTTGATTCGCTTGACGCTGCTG: 127 a.u.
GTCTTGTCTCATTTTCACGTGCTCTTCCCCACTTCAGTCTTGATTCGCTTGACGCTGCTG: 1140 a.u.
TATGTCCAATAGAGTCGCGTGCGATACAACTTCGTCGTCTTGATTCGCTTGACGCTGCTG: 95.8 a.u.
CTATTACGGGCTTGGCTTGTGAAACTTTTCCTATATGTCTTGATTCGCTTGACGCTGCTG: 94.1 a.u.
CCATACCAAACAGCCCTCGTGGAGGAAAGAACGGTAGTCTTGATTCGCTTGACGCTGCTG: 71.2 a.u.
GTCTTGTCTCATTGTCACCTCACTTTCCCCACTTCAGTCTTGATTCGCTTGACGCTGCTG: 85.9 a.u.
CTCCGAAAAGAATAGCATGTGCAAGATGAGTTACCGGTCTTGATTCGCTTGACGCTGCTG: 178 a.u.
TCTCCTTGCTCGTACCATGTGGTTTCATCTCAGGGTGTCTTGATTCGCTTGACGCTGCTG: 158 a.u.
GTCTTGTCTCATTGACCCGTGGGTGTCCCCACTTCAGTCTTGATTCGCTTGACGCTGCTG: 72.4 a.u.
CTTCTGTAAATTTGGTATGTGGGTGGACGCGCCCCGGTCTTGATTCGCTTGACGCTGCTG: 91.9 a.u.
GTCTTGTCTCATTGTCACCAAACTTTCCCCACTTCAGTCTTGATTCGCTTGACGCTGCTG: 90 a.u.
CATACCCAACCTTTTCACGTGAGTTAAGATATTTGTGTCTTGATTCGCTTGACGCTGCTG: 1110 a.u.
ATGTTCCTCAAGGTGCTCGTGTCCACACCGAAAAATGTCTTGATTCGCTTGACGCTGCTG: 95.3 a.u.
CGGGGTTAAGTTTGGCTGGTGGGTGGCTTGCAGCAGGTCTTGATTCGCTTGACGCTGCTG: 63.2 a.u.
